Experimental data from different studies.
Numbered parts are unrelated; each lists some results of a single study. ± gives the spread as reported.
UniProt Q86U86, sequence (whole entry, unmodified, looked up): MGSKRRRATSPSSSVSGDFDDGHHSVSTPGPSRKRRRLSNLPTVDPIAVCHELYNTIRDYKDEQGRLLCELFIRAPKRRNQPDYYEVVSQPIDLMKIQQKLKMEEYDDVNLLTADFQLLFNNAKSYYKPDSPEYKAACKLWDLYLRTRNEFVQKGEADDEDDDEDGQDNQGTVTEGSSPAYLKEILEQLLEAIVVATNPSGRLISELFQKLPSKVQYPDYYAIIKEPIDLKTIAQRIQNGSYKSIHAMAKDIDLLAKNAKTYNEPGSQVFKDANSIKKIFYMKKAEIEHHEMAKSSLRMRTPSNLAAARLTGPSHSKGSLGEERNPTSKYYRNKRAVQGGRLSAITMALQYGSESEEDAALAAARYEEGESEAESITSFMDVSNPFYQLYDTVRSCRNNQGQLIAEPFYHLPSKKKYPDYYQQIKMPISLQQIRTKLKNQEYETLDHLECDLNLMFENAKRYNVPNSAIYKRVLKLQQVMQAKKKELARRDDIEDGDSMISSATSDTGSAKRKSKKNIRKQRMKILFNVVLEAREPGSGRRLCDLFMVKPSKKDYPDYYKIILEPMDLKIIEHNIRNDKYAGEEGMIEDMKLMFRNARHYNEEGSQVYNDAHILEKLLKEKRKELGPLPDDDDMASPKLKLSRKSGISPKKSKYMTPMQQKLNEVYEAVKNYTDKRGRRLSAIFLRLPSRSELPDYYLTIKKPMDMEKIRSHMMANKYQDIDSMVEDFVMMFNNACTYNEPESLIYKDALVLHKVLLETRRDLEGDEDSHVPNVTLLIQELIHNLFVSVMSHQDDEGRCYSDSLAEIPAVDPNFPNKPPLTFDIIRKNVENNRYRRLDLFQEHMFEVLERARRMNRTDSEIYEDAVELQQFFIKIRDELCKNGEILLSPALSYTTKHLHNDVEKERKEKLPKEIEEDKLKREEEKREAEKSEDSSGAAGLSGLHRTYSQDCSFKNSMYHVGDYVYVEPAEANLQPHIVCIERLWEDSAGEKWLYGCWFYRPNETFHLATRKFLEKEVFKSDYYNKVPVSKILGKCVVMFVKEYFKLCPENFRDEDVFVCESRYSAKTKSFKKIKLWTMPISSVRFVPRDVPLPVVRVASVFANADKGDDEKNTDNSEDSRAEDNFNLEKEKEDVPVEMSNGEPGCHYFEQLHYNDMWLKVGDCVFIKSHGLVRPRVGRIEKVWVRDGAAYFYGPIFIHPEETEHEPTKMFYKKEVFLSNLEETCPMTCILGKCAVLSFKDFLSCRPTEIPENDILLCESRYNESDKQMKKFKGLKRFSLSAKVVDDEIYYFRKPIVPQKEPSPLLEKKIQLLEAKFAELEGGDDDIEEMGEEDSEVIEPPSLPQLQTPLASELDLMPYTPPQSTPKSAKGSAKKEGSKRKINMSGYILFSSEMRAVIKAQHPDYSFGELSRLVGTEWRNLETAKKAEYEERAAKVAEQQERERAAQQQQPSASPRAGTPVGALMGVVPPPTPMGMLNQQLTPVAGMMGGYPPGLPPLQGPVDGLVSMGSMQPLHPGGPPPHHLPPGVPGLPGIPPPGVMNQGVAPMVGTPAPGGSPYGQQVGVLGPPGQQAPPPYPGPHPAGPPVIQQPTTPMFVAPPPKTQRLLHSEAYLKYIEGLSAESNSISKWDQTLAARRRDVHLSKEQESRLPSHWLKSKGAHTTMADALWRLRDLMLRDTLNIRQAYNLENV
UniProt P42336, sequence (whole entry, unmodified, looked up): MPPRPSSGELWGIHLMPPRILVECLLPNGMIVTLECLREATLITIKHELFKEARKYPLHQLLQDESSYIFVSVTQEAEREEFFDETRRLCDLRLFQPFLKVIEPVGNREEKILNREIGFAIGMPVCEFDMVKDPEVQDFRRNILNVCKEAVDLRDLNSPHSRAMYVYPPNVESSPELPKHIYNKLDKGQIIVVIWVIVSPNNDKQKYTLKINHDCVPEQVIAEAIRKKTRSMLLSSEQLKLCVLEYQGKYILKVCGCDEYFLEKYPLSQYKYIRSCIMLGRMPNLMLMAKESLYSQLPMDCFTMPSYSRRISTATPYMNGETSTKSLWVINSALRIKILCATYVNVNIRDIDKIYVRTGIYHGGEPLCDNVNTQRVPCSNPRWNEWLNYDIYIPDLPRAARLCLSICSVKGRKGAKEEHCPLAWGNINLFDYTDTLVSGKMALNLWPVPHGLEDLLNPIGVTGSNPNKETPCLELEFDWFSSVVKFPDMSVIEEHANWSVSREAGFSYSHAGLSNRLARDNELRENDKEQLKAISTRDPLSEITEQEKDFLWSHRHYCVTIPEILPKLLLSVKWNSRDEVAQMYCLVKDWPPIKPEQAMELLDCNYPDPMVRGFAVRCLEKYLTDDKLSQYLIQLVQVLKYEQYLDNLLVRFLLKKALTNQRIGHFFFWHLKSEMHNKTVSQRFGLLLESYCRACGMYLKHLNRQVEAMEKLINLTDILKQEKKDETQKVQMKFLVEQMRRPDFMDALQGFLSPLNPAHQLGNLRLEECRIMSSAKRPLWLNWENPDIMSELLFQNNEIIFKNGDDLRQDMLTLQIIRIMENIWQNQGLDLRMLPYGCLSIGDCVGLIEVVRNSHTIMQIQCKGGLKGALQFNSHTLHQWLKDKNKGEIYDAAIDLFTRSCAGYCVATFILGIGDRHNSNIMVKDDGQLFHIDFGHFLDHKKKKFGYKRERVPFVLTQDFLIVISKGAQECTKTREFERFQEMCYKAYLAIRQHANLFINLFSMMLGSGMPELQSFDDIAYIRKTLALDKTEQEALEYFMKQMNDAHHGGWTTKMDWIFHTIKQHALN
UniProt Q9H4B4, sequence (whole entry, looked up): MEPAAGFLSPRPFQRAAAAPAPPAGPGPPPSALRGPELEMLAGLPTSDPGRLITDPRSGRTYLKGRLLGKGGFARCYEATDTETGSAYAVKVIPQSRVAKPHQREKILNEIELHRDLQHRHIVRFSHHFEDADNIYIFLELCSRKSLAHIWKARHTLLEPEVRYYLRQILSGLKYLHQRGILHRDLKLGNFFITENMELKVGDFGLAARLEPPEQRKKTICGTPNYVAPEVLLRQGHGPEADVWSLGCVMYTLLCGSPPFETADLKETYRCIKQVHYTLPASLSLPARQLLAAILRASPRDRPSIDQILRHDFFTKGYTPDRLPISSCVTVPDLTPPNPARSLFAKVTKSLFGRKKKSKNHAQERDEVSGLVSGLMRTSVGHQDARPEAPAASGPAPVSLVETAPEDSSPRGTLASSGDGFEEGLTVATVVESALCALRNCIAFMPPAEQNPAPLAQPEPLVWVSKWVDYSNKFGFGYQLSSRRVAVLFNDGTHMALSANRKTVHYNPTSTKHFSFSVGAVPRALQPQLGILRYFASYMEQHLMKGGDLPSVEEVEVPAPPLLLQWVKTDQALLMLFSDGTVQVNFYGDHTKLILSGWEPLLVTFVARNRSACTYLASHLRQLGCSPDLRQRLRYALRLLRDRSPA
UniProt Q16584, sequence (whole entry, looked up): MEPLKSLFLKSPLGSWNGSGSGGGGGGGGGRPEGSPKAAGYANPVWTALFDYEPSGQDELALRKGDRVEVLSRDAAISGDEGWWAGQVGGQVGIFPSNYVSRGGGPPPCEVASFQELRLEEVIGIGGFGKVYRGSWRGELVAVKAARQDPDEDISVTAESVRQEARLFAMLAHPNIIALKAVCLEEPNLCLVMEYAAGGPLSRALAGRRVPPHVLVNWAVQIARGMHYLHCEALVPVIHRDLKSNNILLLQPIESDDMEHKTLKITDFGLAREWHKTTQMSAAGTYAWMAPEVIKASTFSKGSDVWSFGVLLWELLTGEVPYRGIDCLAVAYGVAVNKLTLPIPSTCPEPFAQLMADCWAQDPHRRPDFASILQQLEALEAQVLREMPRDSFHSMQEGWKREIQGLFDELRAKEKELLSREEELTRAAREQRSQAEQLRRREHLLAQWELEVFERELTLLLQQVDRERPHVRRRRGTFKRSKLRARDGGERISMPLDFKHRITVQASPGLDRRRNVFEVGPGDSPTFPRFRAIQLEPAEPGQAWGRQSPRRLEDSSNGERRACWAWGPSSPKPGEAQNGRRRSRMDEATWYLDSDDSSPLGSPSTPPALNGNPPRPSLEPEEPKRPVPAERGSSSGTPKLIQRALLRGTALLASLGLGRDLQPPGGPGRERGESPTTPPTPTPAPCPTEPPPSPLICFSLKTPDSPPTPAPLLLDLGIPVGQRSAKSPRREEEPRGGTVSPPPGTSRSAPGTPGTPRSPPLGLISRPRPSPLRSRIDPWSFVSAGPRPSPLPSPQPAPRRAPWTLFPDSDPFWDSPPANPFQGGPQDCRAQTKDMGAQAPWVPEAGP
UniProt Q96GD4, sequence (whole entry, looked up): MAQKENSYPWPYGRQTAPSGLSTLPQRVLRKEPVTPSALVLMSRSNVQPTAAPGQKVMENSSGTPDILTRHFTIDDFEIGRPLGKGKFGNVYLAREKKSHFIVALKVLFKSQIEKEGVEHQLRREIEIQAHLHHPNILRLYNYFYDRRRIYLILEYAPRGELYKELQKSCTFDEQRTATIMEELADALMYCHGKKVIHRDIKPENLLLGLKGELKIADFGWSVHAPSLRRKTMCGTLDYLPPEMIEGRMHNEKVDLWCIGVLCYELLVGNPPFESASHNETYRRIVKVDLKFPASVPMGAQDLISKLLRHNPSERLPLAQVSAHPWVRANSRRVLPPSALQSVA

Sample 1 — organism: Plasmodium berghei; action: inhibitor; cell line: Huh-7; strain: liver stage; concentration: 10 µM; time: 24 h; relative to: untreated control
For `Cc1ncc([N+](=O)[O-])n1CCO`, the infection rate was 103%.
For `COCCCC/C(=N\OCCN)c1ccc(C(F)(F)F)cc1`, the infection rate was 109%.
`Nc1nc(=O)c2c([nH]1)NCC(CNc1ccc(C(=O)N[C@@H](CCC(=O)O)C(=O)O)cc1)N2C=O` (stereo partly drawn) gave an infection rate of 113%.
`C[C@H]1C[C@@H]2[C@H]([C@@H](O)C[C@@]3(C)[C@H]2CC[C@]3(O)C(=O)COC(=O)CCC(=O)O)[C@@]2(C)C=CC(=O)C=C12` has an infection rate of 113%.
The infection rate of `NC[C@H]1O[C@H](O[C@H]2[C@H](O)[C@@H](O[C@H]3O[C@H](CO)[C@@H](O)[C@H](N)[C@H]3O)[C@H](N)C[C@@H]2N)[C@H](O)[C@@H](O)[C@@H]1O` is reported as 93.6%.
`COc1ccc(OC)c(C(O)CNC(=O)CN)c1` (stereo not drawn) gave an infection rate of 94.8%.
`CC1CC(OC(=O)c2ccccc2O)CC(C)(C)C1` (stereo not drawn) gave an infection rate of 110%.

Sample 2 — observed: enzyme activity; action: inhibitor; concentration: 10 µM
Target: Calcium/calmodulin-dependent protein kinase type II subunit alpha (CAMK2A, Homo sapiens, UniProt Q9UQM7)
UniProt Q9UQM7, sequence (whole entry, looked up): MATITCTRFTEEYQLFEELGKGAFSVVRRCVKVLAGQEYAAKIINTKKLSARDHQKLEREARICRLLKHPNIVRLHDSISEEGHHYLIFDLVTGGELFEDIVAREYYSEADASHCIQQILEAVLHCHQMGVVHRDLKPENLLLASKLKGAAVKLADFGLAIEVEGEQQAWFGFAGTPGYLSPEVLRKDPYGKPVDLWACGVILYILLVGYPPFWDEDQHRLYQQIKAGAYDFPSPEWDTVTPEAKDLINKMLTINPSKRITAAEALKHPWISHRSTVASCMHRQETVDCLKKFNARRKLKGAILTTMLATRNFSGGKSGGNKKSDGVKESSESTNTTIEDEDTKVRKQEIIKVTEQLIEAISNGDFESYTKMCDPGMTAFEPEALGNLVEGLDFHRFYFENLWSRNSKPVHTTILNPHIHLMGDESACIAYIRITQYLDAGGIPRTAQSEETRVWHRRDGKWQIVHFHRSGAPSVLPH
With `O=C1C[C@@H](c2ccc(O)cc2)Oc2cc(O[C@@H]3O[C@H](CO)[C@@H](O)[C@H](O)[C@H]3O)ccc21` the inhibition was -32%.
`CCOc1ccc2ccc(=O)oc2c1` has an inhibition of -16%.
`NCc1ccc(O)cc1` gave an inhibition of -17%.
The inhibition of `COc1cc(O)c2c(=O)c(O[C@@H]3O[C@H](CO[C@@H]4O[C@@H](C)[C@H](O)[C@@H](O)[C@H]4O)[C@@H](O)[C@H](O)[C@H]3O)c(-c3ccc(OC)c(O)c3)oc2c1` is reported as -3%.
`O=C(CCCCCCC(=O)Nc1ccccc1)NO` has an inhibition of 0%.

Sample 3 — method: competition with immobilised ligand; concentration: 1 µM
Compound: O=C(N[C@H]1CCCCC/C=C\C2C[C@@]2(C(=O)O)NC(=O)[C@@H]2C[C@@H](Oc3ccncc3)CN2C1=O)OC1CCCC1 (stereo partly drawn)
TIE1 (Homo sapiens, UniProt P35590); cell-free assay — remaining binding: 100%.
Tyrosine-protein kinase ABL1, non-phosphorylated (ABL1, Homo sapiens, UniProt P00519, F317L); binding — remaining binding: 100%.
It gave 100% for remaining binding (NEK3 (Homo sapiens, UniProt P51956); binding).
For DMPK (Homo sapiens, UniProt Q09013); binding: remaining binding read 89%.
It gave 66% for remaining binding (CDK8 (Homo sapiens, UniProt P49336); binding).
It gave 100% for remaining binding (NTRK1 (Homo sapiens, UniProt P04629); cell-free assay).
MAP3K11 (Homo sapiens, UniProt Q16584); binding — remaining binding: 97%.
For KIT (Homo sapiens, UniProt P10721, V559D); binding: remaining binding read 89%.
For IKBKB (Homo sapiens, UniProt O14920); binding: remaining binding read 91%.
STK36 (Homo sapiens, UniProt Q9NRP7); binding — remaining binding: 85%.
PLK3 (Homo sapiens, UniProt Q9H4B4); binding — remaining binding: 100%.
TSSK3 (Homo sapiens, UniProt Q96PN8); binding — remaining binding: 100%.
The remaining binding was 100% (SGK3 (Homo sapiens, UniProt Q96BR1); binding).
The remaining binding was 100% (eIF-2-alpha kinase GCN2, C-terminal kinase domain (EIF2AK4, Homo sapiens, UniProt Q9P2K8, S808G); binding).
It gave 100% for remaining binding (RIPK2 (Homo sapiens, UniProt O43353); binding).
It gave 100% for remaining binding (MTOR (Homo sapiens, UniProt P42345); cell-free assay).
The remaining binding was 100% (WNK4 (Homo sapiens, UniProt Q96J92); binding).
It gave 84% for remaining binding (PIK3CA (Homo sapiens, UniProt P42336, M1043I); binding).
It gave 51% for remaining binding (GRK2 (Homo sapiens, UniProt P25098); binding).
For TLK1 (Homo sapiens, UniProt Q9UKI8); cell-free assay: remaining binding read 82%.
MAP3K3 (Homo sapiens, UniProt Q99759); binding — remaining binding: 89%.

Sample 4 — method: competitive binding panel; concentration: 1 µM; relative to: vehicle
SMILES: Cc1ccc(NC(=O)c2ccnc(C(F)(F)F)c2)cc1-c1cc(OCCO)nc(N2CCOCC2)c1
It gave 100% for remaining binding (CDK18 (Homo sapiens, UniProt Q07002)).
Aurora kinase B (AURKB, Homo sapiens, UniProt Q96GD4) — remaining binding: 89%.
The remaining binding was 81% (MAP3K19 (Homo sapiens, UniProt Q56UN5); item: YSK4).
The remaining binding was 98% (PIK3CA (Homo sapiens, UniProt P42336)).
MYLK (Homo sapiens, UniProt Q15746) — remaining binding: 100%.

Sample 5 — concentration: 10 µM
SMILES: Oc1ccc(-c2nc(-c3ccncc3)c(-c3ccc(F)cc3)[nH]2)cc1
The ΔTm was 0.74 °C (Peregrin, bromodomain (BRPF1, Homo sapiens, UniProt P55201); thermal stability, DSF).
For Protein polybromo-1, BD3 (PBRM1, Homo sapiens, UniProt Q86U86); thermal shift: ΔTm read -0.57 ± 0.14 °C.
For Protein polybromo-1, BD6 (PBRM1, Homo sapiens, UniProt Q86U86); thermal shift: ΔTm read 0.43 ± 0.4 °C.
Protein polybromo-1, bromodomain (PBRM1, Homo sapiens, UniProt Q86U86); thermal stability, DSF — ΔTm: 0.47 °C.

For quick reference, copied from above (sample 1):
For `COCCCC/C(=N\OCCN)c1ccc(C(F)(F)F)cc1`, the infection rate was 109%.
`Nc1nc(=O)c2c([nH]1)NCC(CNc1ccc(C(=O)N[C@@H](CCC(=O)O)C(=O)O)cc1)N2C=O` (stereo partly drawn) gave an infection rate of 113%.
`C[C@H]1C[C@@H]2[C@H]([C@@H](O)C[C@@]3(C)[C@H]2CC[C@]3(O)C(=O)COC(=O)CCC(=O)O)[C@@]2(C)C=CC(=O)C=C12` has an infection rate of 113%.
The infection rate of `NC[C@H]1O[C@H](O[C@H]2[C@H](O)[C@@H](O[C@H]3O[C@H](CO)[C@@H](O)[C@H](N)[C@H]3O)[C@H](N)C[C@@H]2N)[C@H](O)[C@@H](O)[C@@H]1O` is reported as 93.6%.
`COc1ccc(OC)c(C(O)CNC(=O)CN)c1` (stereo not drawn) gave an infection rate of 94.8%.
`CC1CC(OC(=O)c2ccccc2O)CC(C)(C)C1` (stereo not drawn) gave an infection rate of 110%.
